Measurements collected from several papers.
Parts stem from different laboratories: compare values within a part only.

Block 1
Target: Sal-like protein 4, full length isoform A (SALL4, Homo sapiens, UniProt Q9UJQ4, residues 1-1053)
Chain of UniProt Q9UJQ4 (whole entry, looked up): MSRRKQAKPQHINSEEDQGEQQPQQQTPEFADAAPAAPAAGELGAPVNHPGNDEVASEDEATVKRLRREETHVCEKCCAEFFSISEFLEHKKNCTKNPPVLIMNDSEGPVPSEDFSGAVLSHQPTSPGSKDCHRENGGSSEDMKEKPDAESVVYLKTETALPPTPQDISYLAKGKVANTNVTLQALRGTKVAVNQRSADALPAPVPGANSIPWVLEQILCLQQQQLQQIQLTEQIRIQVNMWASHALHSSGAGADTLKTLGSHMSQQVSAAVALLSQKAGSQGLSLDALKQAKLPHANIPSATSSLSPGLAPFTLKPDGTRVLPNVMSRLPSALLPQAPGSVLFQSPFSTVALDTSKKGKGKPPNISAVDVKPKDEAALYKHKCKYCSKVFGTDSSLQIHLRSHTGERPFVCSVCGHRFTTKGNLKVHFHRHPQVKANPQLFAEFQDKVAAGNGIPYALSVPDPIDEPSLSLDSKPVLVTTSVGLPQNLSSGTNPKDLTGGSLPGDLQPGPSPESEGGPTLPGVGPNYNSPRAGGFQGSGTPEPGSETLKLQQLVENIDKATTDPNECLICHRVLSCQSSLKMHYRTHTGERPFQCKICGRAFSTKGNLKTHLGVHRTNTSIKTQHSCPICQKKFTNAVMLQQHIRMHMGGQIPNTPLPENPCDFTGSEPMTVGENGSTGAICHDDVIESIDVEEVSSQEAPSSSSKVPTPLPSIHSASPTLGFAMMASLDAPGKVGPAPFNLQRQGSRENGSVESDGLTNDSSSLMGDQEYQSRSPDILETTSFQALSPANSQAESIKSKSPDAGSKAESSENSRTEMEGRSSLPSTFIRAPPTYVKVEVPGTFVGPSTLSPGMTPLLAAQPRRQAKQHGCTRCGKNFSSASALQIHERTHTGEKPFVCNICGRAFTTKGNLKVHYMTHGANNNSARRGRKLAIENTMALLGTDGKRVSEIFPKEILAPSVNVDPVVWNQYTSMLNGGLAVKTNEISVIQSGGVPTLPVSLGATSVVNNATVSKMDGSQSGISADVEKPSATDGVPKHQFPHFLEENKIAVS
Method: universal PBM
Form: double-stranded DNA, one strand shown
Medium: in vitro
Tested at: 600 nM
Notes: 8-mer, flanks averaged, mean of replicates
Reading: higher = stronger binding
Sequence	E-score
CTTGAAAA	0.226
ATCCCAGG	-0.162
CTCCGCAG	-0.182
ACGATTAC	0.0548
ACTTGAAC	0.126
ACAGCATC	-0.031
CGTCTCAC	-0.251
AGTCCCTA	0.0525
AGATGGTA	0.0985
ACGCCTCC	-0.216
GTGGCAAC	-0.109
CTTCTACA	0.15
AACCGCTG	-0.176
AACACTGT	0.0502
GCTGGCAA	-0.121
GACGTATC	0.034
GGGCAAAC	-0.206
GAATAGTC	0.019
AGGCATGC	-0.0601
ATGCCTAA	0.157
CCACTCTA	0.0767
AATGGACC	0.0238
AGTACGGC	-0.186
CGCCTACA	-0.0558
AAGGAAAA	0.228

Block 2
Target: Histone acetyltransferase KAT6A, winged helix 1, GST fusion (KAT6A, Homo sapiens, UniProt Q92794, residues 1-85)
Method: protein binding microarray
Form: double-stranded DNA, one strand shown
Medium: in vitro
Tested at: not given
Notes: 8-mer, flanks averaged, mean of 2 arrays, mostly near background
Reference: not given
Reading: higher = stronger binding
Residues (chain): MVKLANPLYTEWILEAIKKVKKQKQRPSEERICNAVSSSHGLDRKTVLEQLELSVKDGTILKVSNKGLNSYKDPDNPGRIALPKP
Sequence	E-score
AAGGACTA	-0.257
CAAATGGG	-0.257
GGGCGAGA	-0.0393
CCATTCTA	-0.201
CTATACGA	-0.111
CCGTACGA	0.141
AGTTGTAA	-0.125
CGAATTCC	-0.0191
GAAGTGAC	0.0376
AAGGAACC	-0.0237
CAACTACG	0.00479
AGGGCCGG	0.15
TAGAATCA	-0.208
CAGGAGTA	-0.198
CTGAGAAC	-0.107
CAGTTATA	-0.108
ACATCGAC	-0.00751
ACCGGGCT	0.231
CAATCATC	-0.17
GGAGTCCA	-0.0672

Block 3
Target: Fragile X messenger ribonucleoprotein 1, C-terminal low-complexity region (Fmr1, Mus musculus, UniProt P35922)
Method: RNA Bind-n-Seq
Form: RNA
Medium: in vitro
Tested at: 200 nM
Notes: whole 134-nt RNA, ends assumed
Together with: 150 mM KCl
Reference: input library
Reading: higher = stronger binding
Sequence	log2 enrichment
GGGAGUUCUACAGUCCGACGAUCGCAGGAAGUAAAAACAAAUGGAAAUGCUUCGGAUAGUGGCAGGGGUGGGGGUUGCUAAGGAAAGGCUGGGAUGGGAGUGGGUAAAGAGUUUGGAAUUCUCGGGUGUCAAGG	0.325
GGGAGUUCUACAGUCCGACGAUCGCAGGAAGUAAAAACAAAUGGAAAUGCUUCGGAUAGUGGCAGGGGUGGGGGUUGCUAAGGAAAGGGUGGGAUGGGAGUGGGUAAAGGGUUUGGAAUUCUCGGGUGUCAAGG	0.147
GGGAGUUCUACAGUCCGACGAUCGCAGGAAGUAAAAACAAAUGGAAAUGCUUCAGAUAGUGGCAGGGGUGGGGGUUGCUAAGGAAAGGGUGGGAUGGGAGUGGGUAAAGAGUUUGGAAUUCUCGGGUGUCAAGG	0.111
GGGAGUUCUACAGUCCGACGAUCACCAUGCAGGUGGGCAUCUUUGGGAAGUGGGGCAAGGGGGGGGUAGGGAGGGGGGUAACACUUUGGGAACAGGUGGUCCCAGGUCGUUUCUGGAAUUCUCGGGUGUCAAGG	0.789
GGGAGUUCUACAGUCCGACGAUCCAAGUCCUGUGCUACACAUCGUAUGUACCGAAUCGGGGAGGGGAGGGGUUUGGGGAAAGUAUUAUGUUACGCCGUUCGGAUCUGCACUUCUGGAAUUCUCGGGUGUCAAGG	1.23
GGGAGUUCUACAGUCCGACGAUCUCAAGUCCUGUGCUACACAUCGUAUGUACCGAAUCGGGAAGGGGAAGGGGAAGGGAAAGUAUUAUGUUACGCCGUUCGGAUCUGCACUUCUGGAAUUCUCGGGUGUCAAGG	0.796
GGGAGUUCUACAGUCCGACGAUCGUCCUGUGCUACACAUCGUAUGUACCGAAUCGGCCCCCGGCCCCCGGGGCCCCCGGGGAAAGUAUUAUGUUACGCCGUUCGGAUCUGCACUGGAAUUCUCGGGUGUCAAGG	-0.346
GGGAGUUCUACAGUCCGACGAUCCUGUGCUACACAUCGUAUGUACCGAAUCGGAAAAAAAGGGAAAAAAAGGGAAAAAAAGGGGAAAGUAUUAUGUUACGCCGUUCGGAUCUGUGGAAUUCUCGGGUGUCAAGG	-1.09
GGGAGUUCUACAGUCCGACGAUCGCAGGAAGUAAAAACAAAUGGAAAUGCUUCGGAUAGUGGCAGGGGUGGGGGUUGCUAAGGAAAGGGUGGGAUGGGAGUGAAAAAAGAGUUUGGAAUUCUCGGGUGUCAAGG	0.048
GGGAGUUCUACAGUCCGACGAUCCGCUAAAGAGGAGCACGGUGGACUGAUGUGAGCUUCUCUUCCUGCCCCUUCCUCCCUGAUGUCCACUCCCUUCACCUUCCUCACGCCCGUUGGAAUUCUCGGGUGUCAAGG	0.595

Block 4
Target: TAR DNA-binding protein 43, full length, His tag (TARDBP, Homo sapiens, UniProt Q13148, residues 1-414)
Method: RNA Bind-n-Seq
Form: RNA
Medium: in vitro
Tested at: 20 nM
Notes: 6-mer, flanks averaged, single round
Together with: 150 mM LiCl
Reference: input library
Reading: higher = stronger binding
Sequence	6-mer enrichment (R)
CCCGUA	0.959
CUAACA	0.836
GGGGUC	1.16
CCGAGC	0.904
AUGGGU	1.25
UGUCUG	1.11
CGGUAU	0.978
CGUUCA	0.848
GUCUCU	0.919
GCGGAU	1
UCCUCC	0.969
UGGUGG	1.45
CAGAGU	0.929
GGUCUU	0.943
CCGCCG	0.94
ACAGCU	0.816
AAGCAG	0.891
UGACAC	1.08
CAUCGC	0.837
CAUCCG	0.826
GAUAAU	0.902
GGGUGU	1.71
GUGUGU	3.19

Block 5
Target: RNA binding protein fox-1 homolog 2, RRM domain, GST-SBP tag (RBFOX2, Homo sapiens, UniProt O43251-10, residues 100-194)
Method: RNA Bind-n-Seq
Form: RNA
Medium: in vitro
Tested at: 365 nM
Notes: natural RNA segment, single round, ends assumed
Reference: no-protein control
Reading: higher = stronger binding
Construct (chain): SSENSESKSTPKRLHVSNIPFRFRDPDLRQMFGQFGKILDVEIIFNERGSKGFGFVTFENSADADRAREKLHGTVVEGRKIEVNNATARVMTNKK
Sequence	RBNS enrichment (R)
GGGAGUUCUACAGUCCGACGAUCGUCAAAGUGCUGGAAUUUUCCAAAACAGCCUGUUCUCUCCUCUCUCCUCCCCAGAGCACCCCCUGCCAUCAGGGGGGUUGAAAUCCCUCUCCCCCAGGAGCCCUGCUGCUUGGAAUUCUCGGGUGCCAA	0.548
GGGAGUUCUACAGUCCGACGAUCAUAUUAUAUUUUUUCACUAUAGGUACAUGUAACAGUAAAACGUGUAACAGCAAAGUAUAUAUUUGAUGUUUUCUGUCUUUCAUGAUAUUGUGCUAACAAGUUGUGCUAAUUGGAAUUCUCGGGUGCCAA	0.335
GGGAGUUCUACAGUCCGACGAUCUGUACUGGGUGAUGCACCCAUUGUGAUUGUGGAAGAUAGAAUUCAAUUUGAACUCAGGUUGUUUAUGAGGGGAAAAAAACAGUUGCAUAGAGUAUAGCUCUGUAGUGGAAUGGAAUUCUCGGGUGCCAA	1.77
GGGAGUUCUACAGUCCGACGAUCAGAAAUGUGUUGUGUUGUCUUAGCUUUAAAACAGUCACAGUUCUUGCUCUAUCAUAGAUGAACAAAUACUUUCUUGAUCAUUCUGUAAGACCAGGAGGUUGGUAAGAGUGUGGAAUUCUCGGGUGCCAA	0.489
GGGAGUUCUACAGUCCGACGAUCUUGGUGAGCUGCUGGUAUUGCUGAAGGCAGGGUGGACCCCUCACUUGCUUCCUAGUGCACUCGUUCAAUUGGAUUGGGGAGGAGACUGACUGUACUCACGGCUAACUUGAUGGAAUUCUCGGGUGCCAA	0.663
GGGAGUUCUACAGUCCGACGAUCAGGGAACUCUUGGUACCUGGAAAUGUGAAUCUGGAAUAUUACCUGUGUCAUCAAAGUAGUGAUGGAUUCAGUACUCCUCAACCACUCUCCUAAUGAUUGGAACAAAAGCAUGGAAUUCUCGGGUGCCAA	2.11
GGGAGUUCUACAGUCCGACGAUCGGGUUCCUUCUGUUUCCUAUUUGGGCACUGAGCCAGAGGAUGGAGUUGUCUCCCUGACAAAUAAUGAACCACCCCACCUUUUAGAAUGAAGUAUAAAUGAAGUCAUAAAAUGGAAUUCUCGGGUGCCAA	0.465
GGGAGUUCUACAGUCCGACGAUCACUGCCUGGAGGGCAGGGAGUGGGAGCCAAUGAACAGGCAUGCAAGUGAGAGCUUCCUGAGCUUUCUCCUGUCGGUUUGGUCUGUUUUGCCUUCACCCAUAAGCCCCUCGUGGAAUUCUCGGGUGCCAA	0.788
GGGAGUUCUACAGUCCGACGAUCGAGUUGGGCAGAAGUCAGACAUUACGGUGAGAUUCAGGGCUCAGAGUGGGGGUGCUGUACUCACUGGCUUUGUGACCUGGCCUGGGGGGGGUUCCAGGUAAGAGAAACAGUGGAAUUCUCGGGUGCCAA	0.806
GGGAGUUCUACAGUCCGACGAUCGGUGACGCCACCCACAGAGAUUUAAUGAGCGUGGGCCUGGACCUUCCCCAGAUGCUGCCAGGCAGCCCCUCCCCAAGCCUCAAAGAAGCAUUUGCUGAGGAUGGAGAGGCUGGAAUUCUCGGGUGCCAA	0.562
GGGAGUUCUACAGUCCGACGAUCAGUUUCAGGUGAACUUCUUCAGCAGAAUAAGGUGAUGCCACUCUGACCUUUGCUGAGCUCAGUGACUCUUCAGUGUUAAAACUGAACCCCAGAGGGGAUUCUCCAUGCCAUGGAAUUCUCGGGUGCCAA	0.233
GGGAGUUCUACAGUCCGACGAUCUCCCACCUUGGAGCAUUUAUGUAGACAUUGUAAAUAAAUUUUGUGCAAAAAGGACUGGAAAAAUGAACUGUAUUAUUGCAAUUUUUUUUUGUAAAAGUAGCAGUUUGGUAUGGAAUUCUCGGGUGCCAA	0.842

Some of these lines once more (block 1):
Sequence	E-score
AATGGACC	0.0238
AGATGGTA	0.0985
ACGATTAC	0.0548
ATGCCTAA	0.157
AAGGAAAA	0.228
AGTCCCTA	0.0525
CGTCTCAC	-0.251
CTTCTACA	0.15
GAATAGTC	0.019
ACTTGAAC	0.126
AGGCATGC	-0.0601
